{"data": "Experimental data pooled from the literature", "note": "Lines come from different studies, so protocols differ."}
{"SMILES": "OCc1ccc(-c2nn(Cc3cccnc3)c3cccnc23)o1", "assay": "metabolic stability", "system": "rat, liver microsomes", "setting": "1 µM, pH 7.4", "quantity": "half-life", "value": "> 0.5 h"}
{"SMILES": "O=C(c1ccc(F)cc1)C1CCN(CCn2c(=O)[nH]c3ccccc3c2=O)CC1", "assay": "metabolic stability", "system": "monkey, liver microsomes", "setting": "1 h", "quantity": "compound remaining", "value": "21.2%"}
{"SMILES": "COc1cc2c3c(n(CCCN4CCOCC4)c(=O)c2cc1OC)-c1cc2c(cc1C3=O)OCO2", "system": "male beagle dog, plasma", "setting": "intravenous, 100 mg/m², infusion", "quantity": "half-life", "value": "9.9 h"}
{"SMILES": "Cc1nc(-c2cnc(NC(C)C)n(C)c2=O)ccc1Oc1ccnc(-c2cnn(C)c2)c1", "system": "female mouse, plasma", "setting": "oral, 7.5 mg/kg, single dose", "quantity": "Tmax", "value": "2 h"}
{"SMILES": "N#C[C@@]1(c2ccc3c(N)ncnn23)O[C@H](CO)[C@@H](O)[C@H]1O", "system": "dog, plasma", "setting": "100 µM", "quantity": "fraction unbound", "value": 0.957}
{"SMILES": "Nc1ccc(/N=N/c2cccc(F)c2F)c(N)n1", "assay": "metabolic stability", "system": "human, liver microsomes", "setting": "10 µM", "quantity": "half-life", "value": "~0.5 h"}
{"SMILES": "Cc1noc(C)c1Cn1cc(N2C(=O)CN(Cc3cccc(O)c3)C2=O)cn1", "system": "male Sprague-Dawley rat, plasma", "setting": "oral, 30 mg/kg, 12 h", "quantity": "concentration", "value": "7.88 ng/mL"}
{"SMILES": "CCOC(=O)[C@@]12C[C@@H]1[C@@H](n1ccc3c(NC)nc(C#Cc4ccc(Cl)s4)nc31)[C@H](O)[C@@H]2O", "system": "male Sprague-Dawley rat, plasma", "setting": "intravenous, 0.5 mg/kg, 4.8 min", "quantity": "concentration", "value": "20.9 ng/mL"}
{"SMILES": "C(=N\\Nc1ccccc1)/c1ccc(-c2cccc(/C=N/Nc3ccccc3)c2)cc1", "assay": "haemolysis", "system": "mouse", "setting": "62.5 µg/mL, 1 h", "quantity": "haemolysis", "value": "< 25%"}
{"SMILES": "O=C1CC[C@H](N2Cc3cc(N4CCN(CC5CCN(c6ccc([C@@H]7c8ccc(O)cc8CC[C@@H]7c7ccccc7)cc6)CC5)CC4)ccc3C2=O)C(=O)N1", "system": "Sprague-Dawley rat, plasma", "setting": "intravenous, 5 mg/kg", "quantity": "Vd", "value": "2.95 L/kg"}
{"SMILES": "Cn1nc2c(=O)n(C3CC3)cnc2c1[C@](O)(c1cnc(C(F)(F)F)c(Cl)c1)C(F)(F)F", "assay": "nephelometry", "system": "aqueous buffer", "setting": "30 min, pH 6.5", "quantity": "kinetic solubility", "value": "80 to 160 µM"}
{"SMILES": "COc1ccc(F)cc1C(=O)NCc1ccc(-c2nn([C@@H](C)C(F)(F)F)c(N)c2C(N)=O)cc1", "system": "male human, plasma", "setting": "oral, 200 mg, tablet", "quantity": "bioavailability", "value": "86%"}
{"SMILES": "OCc1ccc(-c2nn(Cc3ccccc3)c3ccccc23)o1", "system": "male CD-1 mouse, plasma", "setting": "intraperitoneal, 30 mg/kg", "quantity": "bioavailability", "value": "52%"}
{"SMILES": "Cc1ncsc1-c1ccc([C@H](CC(=O)N2CCN(c3ccc(C#Cc4ccc(C(=O)N5CCC(n6cc(-c7ccc8c(c7)CCN8C(=O)Cc7cccc(OC(F)(F)F)c7)c7c(N)ncnc76)CC5)cc4)cn3)CC2)NC(=O)[C@@H]2C[C@@H](O)CN2C(=O)[C@@H](NC(=O)C2(F)CC2)C(C)(C)C)cc1", "assay": "metabolic stability", "system": "human, liver microsomes", "setting": "1 µM", "quantity": "half-life", "value": "> 4 h"}
{"SMILES": "NCc1cc2c(cc1F)C(=O)N(C1CCC(=O)NC1=O)C2 (stereo not drawn)", "system": "male cynomolgus monkey, plasma", "setting": "oral, 0.3 mg/kg", "quantity": "Cmax", "value": "1.57 ng/mL"}
{"SMILES": "CC(C)(C)c1ccc(O)c(CN(Cc2cc(C(C)(C)C)ccc2O)C2CCC(NC(N)=O)CC2)c1 (stereo not drawn)", "system": "male C57BL/6 mouse, brain", "setting": "intraperitoneal, 10 mg/kg, single dose", "quantity": "Tmax", "value": "0.5 h"}
{"SMILES": "Cc1cccc(NC(=O)CCCCCCCCC(=O)N2CCC(n3cc(-c4ccc5c(c4)CCN5C(=O)Cc4cccc(OC(F)(F)F)c4)c4c(N)ncnc43)CC2)c1C(=O)N1C[C@H](O)C[C@H]1C(=O)N[C@@H](C)c1ccc(-c2scnc2C)cc1", "assay": "metabolic stability", "system": "mouse, liver S9", "setting": "1 µM", "quantity": "half-life", "value": "0.92 h"}
{"SMILES": "Cn1nc2c(=O)n(C3CC3)ncc2c1[C@](O)(c1cnc(C(F)(F)F)c(Cl)c1)C(F)(F)F", "assay": "nephelometry", "system": "aqueous buffer", "setting": "30 min, pH 6.5", "quantity": "kinetic solubility", "value": "20 to 40 µM"}
{"SMILES": "Cc1ccc2c(c1)nc(/C=C/c1cccc3cccnc13)n2-c1ccccc1", "assay": "metabolic stability", "system": "rat, liver microsomes", "setting": "1.5 µM, 30 min", "quantity": "compound remaining", "value": "23.9%"}
{"SMILES": "CCn1ncc2c([C@](O)(c3ccc(C(F)(F)F)c(Cl)c3)C3CC3)n(C)nc2c1=O", "assay": "nephelometry", "system": "aqueous buffer", "setting": "30 min, pH 6.5", "quantity": "kinetic solubility", "value": "< 5 µM"}
{"SMILES": "O=C1CC[C@H](N2Cc3c(ccc4c3OCC43CCN(C[C@@H]4CCC5(CCN(c6ccc([C@@H]7c8ccc(O)cc8CC[C@@H]7c7ccccc7)cc6)CC5)OC4)CC3)C2=O)C(=O)N1", "system": "beagle dog, plasma", "setting": "oral, 3 mg/kg", "quantity": "half-life", "value": "~23 h"}
{"SMILES": "CC[C@@](O)(c1ccc(C(F)(F)F)nc1)c1c2ccn(C3CC3)c(=O)c2nn1C", "assay": "nephelometry", "system": "aqueous buffer", "setting": "30 min, pH 6.5", "quantity": "kinetic solubility", "value": "40 to 80 µM"}
{"SMILES": "COc1ccc([C@@H](O)c2cc(-c3ncnc4cc(N5CCOCC5)ccc34)c(F)cc2Cl)nn1", "system": "human, plasma", "setting": "oral, 300 mg, multiple doses, twice daily, patients", "quantity": "Tmax", "value": "1.87 h"}
{"SMILES": "COc1ccc2c(=O)n(C)c(-c3ccccc3)nc2c1", "system": "male Sprague-Dawley rat, brain", "setting": "oral, 30 mg/kg, 30 min", "quantity": "concentration", "value": "1.85 ng/mL"}
{"SMILES": "C[C@H]1COC2=C1C(=O)C(=O)c1c2ccc2c1CCCC2(C)C", "system": "PBS", "setting": "24 h, pH 5.5, 25 °C", "quantity": "thermodynamic solubility", "value": "16.4 µg/mL"}
{"SMILES": "Fc1cccc(N/N=C/c2ccc(-c3ccc(/C=N/Nc4cccc(F)c4)cc3)cc2)c1", "assay": "haemolysis", "system": "mouse", "setting": "62.5 µg/mL, 1 h", "quantity": "haemolysis", "value": "< 20%"}
{"SMILES": "CC(C)[C@@H](CS(=O)(=O)C(C)C)N1C(=O)[C@@](C)(CC(=O)O)C[C@H](c2cccc(Cl)c2)[C@H]1c1ccc(Cl)cc1", "system": "FVB mouse, plasma", "setting": "intravenous, 20 mg/kg, single dose", "quantity": "Vd", "value": "0.588 L/kg"}
{"SMILES": "CCN1CCN(Cc2ccc(NC(=O)c3ccc(C)c(NC(=O)c4cncc(-c5cccs5)c4)c3)cc2C(F)(F)F)CC1", "system": "mouse, plasma", "setting": "intraperitoneal, 15 mg/kg, single dose", "quantity": "Tmax", "value": "1 h"}
{"SMILES": "C(=N\\Nc1ccccc1)/c1ccc(-c2ccc(/C=N/Nc3ccccc3)cc2)cc1", "assay": "haemolysis", "system": "mouse", "setting": "62.5 µg/mL, 1 h", "quantity": "haemolysis", "value": "< 20%"}
{"SMILES": "O=C(COc1ccc(Cl)cc1)NC12CC(c3nnc([C@H]4C[C@@H](OC(F)(F)F)C4)o3)(C1)C2", "system": "human, plasma", "setting": "oral, 145 mg, multiple doses, once daily, steady state, healthy volunteers", "quantity": "Tmax", "value": "4.02 h"}
{"SMILES": "CCn1cc(C)c2c([C@H](O)c3cnc(C(F)(F)F)c(Cl)c3)n(C)nc2c1=O", "assay": "nephelometry", "system": "aqueous buffer", "setting": "30 min, pH 6.5", "quantity": "kinetic solubility", "value": "160 to 320 µM"}
{"SMILES": "CC1(C)CN(C(=O)Cn2c(=O)c(C(=O)NCc3ccc(Cl)cc3)cc3nccnc32)C1", "system": "aqueous buffer", "setting": "24 h, pH 7.4, 37 °C", "quantity": "thermodynamic solubility", "value": "41.4 µM"}
{"SMILES": "COc1cccc(-c2n[nH]c(SCc3ccccn3)n2)c1OC", "system": "female Sprague-Dawley rat, plasma", "setting": "oral, 10 mg/kg, 2 h, single dose", "quantity": "concentration", "value": "1290 ng/mL"}
{"SMILES": "Cn1nc2c(=O)n(C3CC3)ncc2c1[C@](O)(c1ccc(C(F)(F)F)c(C#N)c1)C(F)(F)F", "assay": "nephelometry", "system": "aqueous buffer", "setting": "30 min, pH 6.5", "quantity": "kinetic solubility", "value": "20 to 40 µM"}
{"SMILES": "NC(=S)NN=Cc1ncccc1N", "system": "human, plasma", "setting": "oral, 100 mg", "quantity": "bioavailability", "value": "~66%"}
{"SMILES": "CCn1ccc2c([C@](O)(c3ccc(C(F)(F)F)nc3)C3CC3)n(C)nc2c1=O", "assay": "nephelometry", "system": "aqueous buffer", "setting": "30 min, pH 6.5", "quantity": "kinetic solubility", "value": "80 to 160 µM"}
{"SMILES": "Cc1ccc2c(c1)nc(CCc1cccc3cccnc13)n2-c1ccccc1", "assay": "metabolic stability", "system": "rat, liver microsomes", "setting": "1.5 µM, 5 min", "quantity": "compound remaining", "value": "1.89%"}
{"SMILES": "CCn1cc(Cl)c2c(Cc3ccc(C(F)(F)F)nc3)n(C)nc2c1=O", "assay": "nephelometry", "system": "aqueous buffer", "setting": "30 min, pH 6.5", "quantity": "kinetic solubility", "value": "70 to 140 µM"}
{"SMILES": "Cc1c(C(=O)O)ccc2c3n(nc12)[C@@H]1[C@H](C3)N(CC2CC2)[C@@]2(C(=O)Nc3cc(Cl)ccc32)[C@H]1c1cccc(Cl)c1F", "system": "female minipig, plasma", "setting": "oral, 2 mg/kg", "quantity": "AUC(0-inf)", "value": "13.4 µM·h"}
